Results from different studies.
Every numbered part comes from another study and shows a few of its results, in no order.

Sample 1 — method: RNA Bind-n-Seq; form: RNA; matrix: in vitro; tested at: 15 pmol; setting: 4-mer, random 30-nt RNA, single round; added: DMSO vehicle, 2 mM AMP-PNP; baseline: input library; direction: higher = stronger binding
Target: Eukaryotic initiation factor 4A-I (EIF4A1, Homo sapiens, UniProt P60842, residues 1-406, full length assumed)
Chain of UniProt P60842 (whole entry, looked up): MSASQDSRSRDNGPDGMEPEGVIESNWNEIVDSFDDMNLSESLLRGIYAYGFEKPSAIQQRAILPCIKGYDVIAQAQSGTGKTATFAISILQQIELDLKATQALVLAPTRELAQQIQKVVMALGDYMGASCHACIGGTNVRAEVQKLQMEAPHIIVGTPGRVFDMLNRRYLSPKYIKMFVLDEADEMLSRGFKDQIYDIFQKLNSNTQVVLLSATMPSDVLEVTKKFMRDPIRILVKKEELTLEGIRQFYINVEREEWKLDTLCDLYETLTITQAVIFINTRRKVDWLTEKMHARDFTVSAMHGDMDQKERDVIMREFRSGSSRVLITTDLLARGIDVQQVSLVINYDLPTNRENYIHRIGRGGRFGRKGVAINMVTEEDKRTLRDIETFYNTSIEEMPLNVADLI
| Sequence | 4-mer enrichment |
| --- | --- |
| GGCU | 0.778 fold |
| CCUU | 1.06 fold |
| AAAG | 1.29 fold |
| UAGU | 0.69 fold |
| GCAG | 1.21 fold |
| AUUA | 0.985 fold |
| GCAU | 0.926 fold |
| CGGU | 0.926 fold |
| GCGC | 1.05 fold |
| CCCU | 1.64 fold |
| AAAU | 1.13 fold |
| UCUA | 0.797 fold |
| AGAU | 0.86 fold |
| GCAA | 1.13 fold |
| AUCG | 0.504 fold |

Sample 2 — method: protein binding microarray; form: double-stranded DNA, one strand shown; matrix: in vitro; tested at: not given; baseline: not given; direction: higher = stronger binding
Target: Histone acetyltransferase KAT6A, both winged helices, GST fusion (KAT6A, Homo sapiens, UniProt Q92794, residues 1-181)
Setting: 8-mer, flanks averaged, mean of 2 arrays, mostly near background
Residues (chain): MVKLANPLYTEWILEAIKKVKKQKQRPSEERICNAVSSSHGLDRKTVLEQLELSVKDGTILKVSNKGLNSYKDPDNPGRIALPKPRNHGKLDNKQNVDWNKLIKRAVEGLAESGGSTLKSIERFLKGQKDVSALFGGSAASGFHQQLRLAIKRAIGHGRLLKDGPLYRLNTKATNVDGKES
| Sequence | E-score |
| --- | --- |
| AAATTGTC | 0.00198 |
| GCGGCAGA | 0.29 |
| AACCTTTA | -0.187 |
| GAAGGATC | -0.105 |
| GCTCACAA | 0.0151 |
| CACAGATG | -0.192 |
| AAGACATG | -0.0781 |
| ATGCACCC | 0.0625 |
| AGTCAACG | -0.0616 |
| GCGTCTTA | 0.162 |
| CCGCCGAG | 0.257 |
| AACTTTGC | -0.00054 |
| ATTTACCG | 0.13 |
| ACTCGACC | -0.0691 |
| AGCGTCAA | 0.174 |
| GCCTGAGC | 0.00761 |
| ACACCAGA | -0.193 |
| GGCCAATA | 0.0389 |
| ATAAACAT | 0.105 |

Sample 3 — method: RNA Bind-n-Seq; form: RNA; matrix: in vitro; tested at: 365 nM; baseline: no-protein control; direction: higher = stronger binding
Target: RNA binding protein fox-1 homolog 2, RRM domain, GST-SBP tag (RBFOX2, Homo sapiens, UniProt O43251-10, residues 100-194)
Setting: natural RNA segment, single round, ends assumed
Shared flanks, not repeated: GGGAGUUCUACAGUCCGACGAUC … UGGAAUUCUCGGGUGCCAA
Construct (chain): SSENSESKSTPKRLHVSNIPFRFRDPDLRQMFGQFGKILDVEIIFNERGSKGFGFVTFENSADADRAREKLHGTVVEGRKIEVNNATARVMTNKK
| Sequence | RBNS enrichment (R) |
| --- | --- |
| AGGCAGCCUCGCUCACAGCCAGGCACGUAGCUUGCUUCUGAGAUGUGGCAGGCCCUGUCCCAAGGCCAAGGGAGGAGAAGGCUGUCCCACGUGGGCCGCUGAACUGUGUC | 0.264 |
| AGGGAUGCAGAGUCUGAUGCCAGCGUCUUGCUGGGGGAGUGGCCUAGAAGGGGAUCCUAACAGGGACUUCUGGAGCAGACAGAGCCUGCCAGUGCCUGUGGAGUCAGCCA | 1.3 |
| GUAACAAGCCAGGGGACUCUUGGCCAAAAGAAAGAAAGGGAAGUUGCACUAGGGCUUGUCCGUCCAUAAGGAAUUCCCCUCUGCUUUGCUCAAAGGACCAAAUUUCUUUG | 0.504 |
| GUCCUGUGACCCAUAUUUAGCCGUGUUUGGGACUCCGUGUCUUCAAUGGUUUGUUAGUUGCCAUUACAACUUUGUCUGGGUAGAGUUUUUGAGUUUUUGCAGUUCAGUAU | 1.52 |
| GGGGGAAGGGGUGACUGAACUGGGAGUCCAGGGAGGGAGCUGAGGAGCCCUUACCCUCCCACCACUCCCCUCCCAAGACCCAGCCGCCGCCGUUGAGGGCUGAGUCCUUG | 0.526 |
| CUUAUAUAUAUAAUGGUCUAUUUGAAGAGCUCACUUCAACCUAACAGCUAGAUGUCUUUACAAACCUUAAACCAAAGGAGUAAAAAAAACAAUGGUAAGCACUGAAGUAU | 0.478 |
| GAUCUCUGCUGCUGUGUCUUUAUCUACCCUUGCUAGCCCCGGCUCUGGUAGACCGUUCUGGAAUGGAGGGGCUAUGAUCGUCCUAGGACCUGUGCUACGGAGGGGUGGAG | 0.887 |
| GACUCUGCUGCCAUCCGUUCUCCCAGUCCCAAGGGUCCACGAUGUACAAAGUCAUUUCGGCCAGUAGGUGUGCAGACCCCUCCCCGCCACGAUCGUCGCUGUGCUUGGUG | 0.691 |
| AUUUUUUUGUAGUUUAAAGAGCUUUAUUAAUGCAAUAAAUUAACUUUGUACAUUUUUAUAUUAAAAAAAAAAAAAGACUAUUAAGGGACUUCAGAAUGUUGUAGGCCUCA | 3.85 |
| UCAUGUACAGUUUCCAGAAUUGUCACUGUGCAUUCAAAAGUAAUGAAUCUAACAGACAUUUGAUUUAAUGUACACUCCCUUUUGCUUAUAGUGUGCAUUUUUUUUGGAGG | 0.573 |
| CUGCUCUUCUAGAGAUCCUGAGUUCAAUUCCCAGCAACCGCAUGGUGGCUCACAACCAUCUGUAAUGGGAUCUGAUGCCCUCUUCUAGUGUGUCUGAAGACAGUGACAGU | 0.533 |
| UGUUUAUAGUAAAAAGGAAGAGCGUUUCCUAAUCCCUCCUUUACCAUAUCCUACACAGAAAAAUACUUUUAGACUUAUAUUGCCAAGCCAAAGUUACCAUAUUUUGGUGU | 0.694 |

Sample 4 — method: protein-binding microarray; form: double-stranded DNA, one strand shown; matrix: in vitro; tested at: 2540 nM top; setting: 60-bp whole probe; added: salmon DNA 0.4 mg/ml; baseline: random background probes; direction: higher = stronger binding; shared flanks, not repeated: GCCTAGCAC … GTCTTGATTCGCTTGACGCTGCTG
Target: Interferon regulatory factor 3, full length, phosphomimetic (IRF3, Homo sapiens, UniProt Q14653, residues 1-427, S386D/S396D/S398D/S402D/T404D/S405D)
Chain of UniProt Q14653 (whole entry, unmodified, looked up): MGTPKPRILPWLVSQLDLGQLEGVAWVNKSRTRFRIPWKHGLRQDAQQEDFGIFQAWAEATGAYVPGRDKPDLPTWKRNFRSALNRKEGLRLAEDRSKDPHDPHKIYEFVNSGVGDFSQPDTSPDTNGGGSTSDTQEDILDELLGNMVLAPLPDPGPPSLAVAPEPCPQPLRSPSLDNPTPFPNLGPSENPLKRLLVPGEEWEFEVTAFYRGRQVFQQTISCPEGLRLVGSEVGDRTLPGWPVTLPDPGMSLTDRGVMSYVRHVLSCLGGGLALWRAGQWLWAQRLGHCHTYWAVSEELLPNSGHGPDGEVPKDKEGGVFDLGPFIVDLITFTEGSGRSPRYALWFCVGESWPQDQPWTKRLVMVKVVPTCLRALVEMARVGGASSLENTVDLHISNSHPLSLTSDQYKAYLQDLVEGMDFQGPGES
| Sequence | fitted relative affinity |
| --- | --- |
| TTACAATTTGCTTTAGTCATGTGCTAG | 0.428 z-score |
| TCAGCTTTGACTCTTTCACTGTGCTAG | -0.0762 z-score |
| TCCTGCTGTACCCCTAGGGCGTGCTAG | 0.0691 z-score |
| GACCATATCGGGTATCGAGACGTGCTA | 0.94 z-score |
| CACAACCAAACAAGAAGATGGTGCTAG | 0.686 z-score |
| AACGATTCCAGTTTCGAGACGTGCTAG | 3.19 z-score |
| TTAGGTTTCCTACTGGTTTAGTGCTAG | 4.58 z-score |
| TCAAATTTGCTTTAGTCACTGTGCTAG | 0.0509 z-score |
| TTAGAACTGGAGACTGGATTAGTGCTA | -0.64 z-score |
| TTATGTCTCCTTTTCCTTTAGTGCTAG | 5.44 z-score |
| GACGGTATCGGTATCGGGCCGTGCTAG | 4.14 z-score |
| TTAGGTCTCGATTTCGGTTAGTGCTAG | 2.55 z-score |
| TTAGATATTGGGTATCGATTAGTGCTA | -0.102 z-score |
| TTAGGTCTCCTTTTCATTTAGTGCTAG | 4.86 z-score |
| TTATAACTGAGTCTCGATTAGTGCTAG | 0.0383 z-score |
| GACGATCTCAGTATAGAGACGTGCTAG | 0.574 z-score |
| TTAGATACCAGTCTCGATTAGTGCTAG | 1.46 z-score |
| ATAGGTATCGACTATCGGTTAGTGCTA | 0.797 z-score |

Sample 5 — method: RNA Bind-n-Seq; form: RNA; matrix: in vitro; tested at: 100 nM; baseline: input RNA pool; direction: higher = stronger binding
Target: RING finger protein unkempt homolog, zinc fingers 1-6, SBP tag (UNK, Homo sapiens, UniProt Q9C0B0, residues 30-357)
Chain of UniProt Q9C0B0 (30-357, looked up): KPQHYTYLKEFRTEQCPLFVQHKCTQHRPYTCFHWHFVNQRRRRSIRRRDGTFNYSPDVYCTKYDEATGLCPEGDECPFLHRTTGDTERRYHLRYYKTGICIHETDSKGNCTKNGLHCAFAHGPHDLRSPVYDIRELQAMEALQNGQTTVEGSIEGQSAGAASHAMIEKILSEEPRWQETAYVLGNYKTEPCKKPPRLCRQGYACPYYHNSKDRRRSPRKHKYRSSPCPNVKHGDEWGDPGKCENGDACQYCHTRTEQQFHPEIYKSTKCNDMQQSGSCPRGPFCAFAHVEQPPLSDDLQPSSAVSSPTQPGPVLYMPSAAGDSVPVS
Setting: RNA with constant flanks, vertebrate orthologous sites, ends assumed
Shared flanks, not repeated: GGGAGUUCUACAGUCCGACGAUC … CAACAGAGGAUUGAGCAUCA
| Sequence | bound/input enrichment |
| --- | --- |
| UGUCUUGGUUUGGGGUAGAGGGGAGGGAGGGGCAGGACAGUGUGGAAUCUCUAGGGUGUAUGGGUAGAUAGGCUGCACAGUUAGUUCUAAUUGGGCCUUUAUGUUAAAAAAUCUCUGGGG | 0.785 ratio |
| UGGGUUACUCCUAUUAUCAUCAAGUAGCUGGAAUUGUGAAGGUCGGAGUAGUUAGAUCUUUAGCUUUUAUUCCUUCCUUUUUUUGUAUUCCUAUCCAUGUGUAUAAAUUAUUGAUCAUGU | 1.14 ratio |
| GAAAAUGGCUUCUGCUCCAUUAAAAAAGAAGAAGAAUCCCCCAAAUAUAAAACCUCUAAAUAGCUAUUUUUGAAGUUAAAAUGUUUAAAUUUUGUAAAUUAGCUGUUGCUACUACACAAC | 0.647 ratio |
| UUUUUAUUGAUCAGGUCUGUAAAUGUGUACUAAAAAAAUCAGAGUUUAUUUAUAAACAUAAAGUUUAUUUAAAGAGAAGGUCUUUUCCUCAAUGAUAUCAUGGUAUGCAUUAAUUCCAUU | 0.151 ratio |
| GGUUGAUGUUCUGAAGAAUCACUUGGUAAAAGAAGGUCGAGUAGAUGAAGAAAUUGCGCUUAGAAUUAUCAACGAAGGUGCUGCCAUCCUUCGGAGAGAGAAAACCAUGAUAGAAGUAGA | 1.05 ratio |
| GUAUUAGCGUCAGCCAGCAUAUUAACCUCUCGUCUGUGCACAGCUUCAAAUGUUUUCAUCUAGUUAGAUUUUUAUUUAAAAGAUUUAAAAAACUGCUUUUCCCAAGACGUUUUUUAAUAA | 1.88 ratio |
| UCAUAUUGUAAGUAGAGAAAUCUUCAUUGACCCCAUUGUGAAAUUUCCUAGCAAUUUAUUUAGAAUCUUAGCUUUUCUAAUUAAAGCUCACUGUAUUAGUCAAUUUUAUCAUAAUUAAAC | 2.14 ratio |
| UCACAAUCUCUACUAAGUAGGUUUUUACAUACCAAGUUAAGCCUUCAUUUUACAUAUUUACAGCUUUUCUCCGGAGGAGAUAAAAGAAUCUCAUGCUUCAAGUUACAUGUGGUCUUUGCC | 0.413 ratio |
| GUCUGGGUGGGGGGGCAGUGAGCAUUAACUUAUAAAGAAAUGAAAUGCUGAAAGUCCUAUUAGUACUAAGUUUAGUGGGAGAAUUUAAACUCUUUUUACAUAAUUCUAAAACGAAAACCU | 0.88 ratio |
| GCUCUAGUUCUUAACAACCAACACUCCUAAAAGAUUUAGAAAAAAGUUUACAACAUAAUCUAGUUUACAGAAAAAUCUUGUGCUAGAAUACUUUUUAAAAGGUAUUUUGAAUAUCAUUAA | 0.901 ratio |
| UUUUAUUGAUCAGGUCUGUAAAUGUGUACUAAAAAAAUCAGAGUCUAUUUAUAAACAGAAUAGUUUAUUUAAAGAGGUCUUUCCUCACGAUGUUGUGAUAUGCAUAAUUCCAUUUGUUAC | 0.45 ratio |

Excerpt of the above (sample 2):
| Sequence | E-score |
| --- | --- |
| AAATTGTC | 0.00198 |
| GCGGCAGA | 0.29 |
| AACCTTTA | -0.187 |
| GAAGGATC | -0.105 |
| GCTCACAA | 0.0151 |
| CACAGATG | -0.192 |
| AAGACATG | -0.0781 |
| ATGCACCC | 0.0625 |
| AGTCAACG | -0.0616 |
| GCGTCTTA | 0.162 |
| CCGCCGAG | 0.257 |
| AACTTTGC | -0.00054 |
